Results collected from several papers.
Each numbered part is a random draw from the data of one study; scales do not carry over between parts.
UniProt Q96PY6, sequence (whole entry, looked up): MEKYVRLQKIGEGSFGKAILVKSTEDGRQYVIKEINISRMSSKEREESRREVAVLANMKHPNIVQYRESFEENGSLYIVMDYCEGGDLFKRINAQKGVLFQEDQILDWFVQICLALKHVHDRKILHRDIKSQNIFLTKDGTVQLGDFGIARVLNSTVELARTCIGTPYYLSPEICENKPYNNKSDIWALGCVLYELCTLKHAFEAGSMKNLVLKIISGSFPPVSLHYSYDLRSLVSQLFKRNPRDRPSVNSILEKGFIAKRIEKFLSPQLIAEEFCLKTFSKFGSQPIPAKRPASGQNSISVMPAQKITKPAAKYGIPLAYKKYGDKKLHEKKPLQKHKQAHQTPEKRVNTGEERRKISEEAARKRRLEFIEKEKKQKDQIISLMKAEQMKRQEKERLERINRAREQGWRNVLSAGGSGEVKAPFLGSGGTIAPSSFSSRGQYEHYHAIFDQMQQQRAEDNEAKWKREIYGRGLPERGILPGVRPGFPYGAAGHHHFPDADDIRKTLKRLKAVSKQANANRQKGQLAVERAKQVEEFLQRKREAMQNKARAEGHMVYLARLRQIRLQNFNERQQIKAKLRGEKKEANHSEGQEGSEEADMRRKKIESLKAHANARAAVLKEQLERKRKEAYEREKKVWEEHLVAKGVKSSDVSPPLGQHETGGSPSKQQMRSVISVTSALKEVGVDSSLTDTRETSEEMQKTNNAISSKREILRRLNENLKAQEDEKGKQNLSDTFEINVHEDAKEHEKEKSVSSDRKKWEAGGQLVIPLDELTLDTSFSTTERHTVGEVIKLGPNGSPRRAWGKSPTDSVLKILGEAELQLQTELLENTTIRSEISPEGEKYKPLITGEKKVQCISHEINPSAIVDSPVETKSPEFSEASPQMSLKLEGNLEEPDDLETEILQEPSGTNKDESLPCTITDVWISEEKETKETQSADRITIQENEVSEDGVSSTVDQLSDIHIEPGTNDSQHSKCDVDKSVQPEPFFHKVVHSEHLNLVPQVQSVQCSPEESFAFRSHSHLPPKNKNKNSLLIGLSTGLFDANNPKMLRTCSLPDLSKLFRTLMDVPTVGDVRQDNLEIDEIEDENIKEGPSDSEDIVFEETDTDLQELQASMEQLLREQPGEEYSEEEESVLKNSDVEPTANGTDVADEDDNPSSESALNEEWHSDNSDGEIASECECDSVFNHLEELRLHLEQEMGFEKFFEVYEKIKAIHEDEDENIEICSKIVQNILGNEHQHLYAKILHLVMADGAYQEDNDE
UniProt Q07912, sequence (whole entry, looked up): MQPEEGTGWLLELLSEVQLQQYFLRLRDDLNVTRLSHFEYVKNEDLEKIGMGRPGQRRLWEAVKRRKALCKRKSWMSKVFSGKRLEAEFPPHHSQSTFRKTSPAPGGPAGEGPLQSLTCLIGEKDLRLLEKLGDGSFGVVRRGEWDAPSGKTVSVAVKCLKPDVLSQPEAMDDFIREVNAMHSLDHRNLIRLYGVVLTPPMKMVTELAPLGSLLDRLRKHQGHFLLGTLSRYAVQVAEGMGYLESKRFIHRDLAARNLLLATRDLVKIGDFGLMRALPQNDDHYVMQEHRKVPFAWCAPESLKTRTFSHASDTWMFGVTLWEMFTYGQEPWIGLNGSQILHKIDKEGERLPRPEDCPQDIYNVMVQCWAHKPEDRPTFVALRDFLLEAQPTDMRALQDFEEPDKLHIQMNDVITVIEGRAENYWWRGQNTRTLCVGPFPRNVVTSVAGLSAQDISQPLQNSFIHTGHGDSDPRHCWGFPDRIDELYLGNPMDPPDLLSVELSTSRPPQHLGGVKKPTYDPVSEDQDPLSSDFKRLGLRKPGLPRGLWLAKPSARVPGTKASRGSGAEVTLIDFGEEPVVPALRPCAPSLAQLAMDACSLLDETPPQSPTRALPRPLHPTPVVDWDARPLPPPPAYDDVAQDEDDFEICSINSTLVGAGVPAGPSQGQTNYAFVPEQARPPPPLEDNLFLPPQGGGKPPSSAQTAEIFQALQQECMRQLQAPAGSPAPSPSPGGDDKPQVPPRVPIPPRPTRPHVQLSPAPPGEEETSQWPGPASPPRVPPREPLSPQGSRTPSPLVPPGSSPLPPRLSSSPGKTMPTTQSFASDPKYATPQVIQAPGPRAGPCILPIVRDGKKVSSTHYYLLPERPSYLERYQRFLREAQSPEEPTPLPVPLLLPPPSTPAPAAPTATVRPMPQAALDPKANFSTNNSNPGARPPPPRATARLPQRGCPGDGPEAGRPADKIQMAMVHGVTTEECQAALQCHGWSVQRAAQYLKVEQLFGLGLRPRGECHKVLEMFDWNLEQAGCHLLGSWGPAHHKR
UniProt Q13237, sequence (whole entry, looked up): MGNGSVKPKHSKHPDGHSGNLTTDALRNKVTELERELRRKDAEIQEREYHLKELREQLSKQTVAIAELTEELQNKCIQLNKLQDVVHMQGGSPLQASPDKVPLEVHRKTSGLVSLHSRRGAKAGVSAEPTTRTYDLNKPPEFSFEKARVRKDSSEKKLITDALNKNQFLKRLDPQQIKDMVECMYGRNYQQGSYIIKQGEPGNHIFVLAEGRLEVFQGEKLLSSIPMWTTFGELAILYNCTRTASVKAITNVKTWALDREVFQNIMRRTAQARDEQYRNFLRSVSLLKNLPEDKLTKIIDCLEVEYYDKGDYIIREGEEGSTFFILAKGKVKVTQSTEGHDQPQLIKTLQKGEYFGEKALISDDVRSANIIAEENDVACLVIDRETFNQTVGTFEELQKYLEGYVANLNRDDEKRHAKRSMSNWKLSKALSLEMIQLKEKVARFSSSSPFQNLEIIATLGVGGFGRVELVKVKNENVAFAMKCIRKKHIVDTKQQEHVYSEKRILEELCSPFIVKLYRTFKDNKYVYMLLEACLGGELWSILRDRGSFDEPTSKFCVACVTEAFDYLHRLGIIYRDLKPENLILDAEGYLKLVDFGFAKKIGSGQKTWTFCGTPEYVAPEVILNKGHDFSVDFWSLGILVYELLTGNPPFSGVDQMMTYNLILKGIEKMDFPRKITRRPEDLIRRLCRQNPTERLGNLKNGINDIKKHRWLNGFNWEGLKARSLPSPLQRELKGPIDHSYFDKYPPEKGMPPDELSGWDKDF
UniProt P68400, sequence (whole entry, looked up): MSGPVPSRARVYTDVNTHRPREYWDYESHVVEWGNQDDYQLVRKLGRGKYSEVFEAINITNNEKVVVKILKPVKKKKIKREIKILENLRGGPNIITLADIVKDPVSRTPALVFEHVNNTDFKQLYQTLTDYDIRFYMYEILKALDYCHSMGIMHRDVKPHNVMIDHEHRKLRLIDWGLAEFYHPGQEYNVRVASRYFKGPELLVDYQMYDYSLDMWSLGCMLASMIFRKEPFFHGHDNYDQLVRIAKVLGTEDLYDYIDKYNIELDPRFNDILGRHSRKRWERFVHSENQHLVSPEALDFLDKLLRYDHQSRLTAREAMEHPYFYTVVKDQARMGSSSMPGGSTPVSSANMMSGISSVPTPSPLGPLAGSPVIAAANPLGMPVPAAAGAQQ
UniProt O14730, sequence (whole entry, looked up): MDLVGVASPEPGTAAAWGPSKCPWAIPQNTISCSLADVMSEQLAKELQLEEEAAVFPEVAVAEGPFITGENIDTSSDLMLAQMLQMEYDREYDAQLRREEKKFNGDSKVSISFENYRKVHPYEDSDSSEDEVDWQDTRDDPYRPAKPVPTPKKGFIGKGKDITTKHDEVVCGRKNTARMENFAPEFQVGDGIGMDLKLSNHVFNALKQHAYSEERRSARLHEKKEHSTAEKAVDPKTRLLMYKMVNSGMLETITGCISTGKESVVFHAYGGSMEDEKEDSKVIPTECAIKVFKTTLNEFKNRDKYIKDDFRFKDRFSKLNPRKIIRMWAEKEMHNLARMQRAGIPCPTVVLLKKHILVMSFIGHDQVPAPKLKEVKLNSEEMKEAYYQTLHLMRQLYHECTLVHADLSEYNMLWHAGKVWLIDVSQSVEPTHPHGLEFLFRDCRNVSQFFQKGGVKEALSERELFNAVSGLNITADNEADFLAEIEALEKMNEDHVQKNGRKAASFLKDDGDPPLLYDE

Study 1
Compound: CCOC(=O)c1cc2cc(-c3cc(C(=O)NCc4ccc(C(=O)O)cc4)nn3C)ccc2[nH]1
Read-out: cell-free assay
Method: competition with immobilised ligand
Concentration: 0.1 µM
target	remaining binding
Insulin receptor (INSR, Homo sapiens, UniProt P06213)	81%
CSNK2A1 (Homo sapiens, UniProt P68400)	81%
OXSR1 (Homo sapiens, UniProt O95747)	100%
TNK2 (Homo sapiens, UniProt Q07912)	100%
ITK (Homo sapiens, UniProt Q08881)	100%
WNK4 (Homo sapiens, UniProt Q96J92)	97%
NEK1 (Homo sapiens, UniProt Q96PY6)	100%
STK32B (Homo sapiens, UniProt Q9NY57)	92%
EPHB6 (Homo sapiens, UniProt O15197)	77%
MAP3K15 (Homo sapiens, UniProt Q6ZN16)	100%
FLT3 (Homo sapiens, UniProt P36888, K663Q)	90%
CDKL5 (Homo sapiens, UniProt O76039)	87%

Study 2
Structure (SMILES): C=CC(=O)N1CCC[C@@H](n2nc(-c3ccc(Oc4ccccc4)cc3)c3c(N)ncnc32)C1
Action: inhibitor
Concentration: 1 µM
target	read-out	inhibition [%]
FLT3 (Homo sapiens, UniProt P36888)		63
SYK (Homo sapiens, UniProt P43405)	enzyme activity	21
STK16 (Homo sapiens, UniProt O75716)	enzyme activity	0
RIOK3 (Homo sapiens, UniProt O14730)		6
PDPK1 (Homo sapiens, UniProt O15530)	enzyme activity	0
ALK (Homo sapiens, UniProt Q9UM73, C1156Y)		0
MAST1 (Homo sapiens, UniProt Q9Y2H9)	enzyme activity	5
Tyrosine-protein kinase ABL1, phosphorylated (ABL1, Homo sapiens, UniProt P00519, F317L)		32
NEK1 (Homo sapiens, UniProt Q96PY6)	enzyme activity	0
ERBB3 (Homo sapiens, UniProt P21860)	enzyme activity	100

Study 3
Target: CRBN/Zinc finger protein Helios (Homo sapiens, UniProt Q96SW2+Q9UKS7)
UniProt Q96SW2, sequence (whole entry, looked up): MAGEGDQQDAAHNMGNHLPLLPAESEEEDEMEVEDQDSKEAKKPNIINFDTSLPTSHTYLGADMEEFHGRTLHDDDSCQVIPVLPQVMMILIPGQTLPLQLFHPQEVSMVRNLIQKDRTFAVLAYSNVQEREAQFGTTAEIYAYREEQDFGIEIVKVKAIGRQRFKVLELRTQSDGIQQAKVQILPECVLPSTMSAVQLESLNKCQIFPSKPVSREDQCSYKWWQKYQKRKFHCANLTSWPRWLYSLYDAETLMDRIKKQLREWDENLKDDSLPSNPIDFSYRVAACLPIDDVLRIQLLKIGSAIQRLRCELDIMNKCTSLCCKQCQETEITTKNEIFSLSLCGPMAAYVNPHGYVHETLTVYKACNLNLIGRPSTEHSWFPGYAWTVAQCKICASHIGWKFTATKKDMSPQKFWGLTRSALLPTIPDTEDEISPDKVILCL
UniProt Q9UKS7, sequence (whole entry, looked up): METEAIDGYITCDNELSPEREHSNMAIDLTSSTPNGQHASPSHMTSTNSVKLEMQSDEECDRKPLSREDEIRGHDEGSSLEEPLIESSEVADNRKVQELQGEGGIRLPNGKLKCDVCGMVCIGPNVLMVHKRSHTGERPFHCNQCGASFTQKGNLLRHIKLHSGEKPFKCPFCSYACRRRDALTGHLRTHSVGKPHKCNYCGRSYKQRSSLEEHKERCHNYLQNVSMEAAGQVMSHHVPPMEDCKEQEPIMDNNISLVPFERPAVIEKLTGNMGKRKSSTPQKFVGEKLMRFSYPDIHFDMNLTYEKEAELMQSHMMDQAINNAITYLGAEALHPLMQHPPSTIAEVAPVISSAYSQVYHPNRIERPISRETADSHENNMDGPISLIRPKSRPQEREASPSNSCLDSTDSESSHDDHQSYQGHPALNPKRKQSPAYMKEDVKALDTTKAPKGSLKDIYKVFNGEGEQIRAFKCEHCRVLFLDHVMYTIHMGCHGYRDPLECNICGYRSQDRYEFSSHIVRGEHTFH
Action: degrader
Method: HiBiT
Cell line: HEK293
Concentration: 4.572 nM
Structure (SMILES)	protein remaining
O=C1CCC(N2Cc3c(ccc4c3OCCC43CCN(Cc4ccccc4)CC3)C2=O)C(=O)N1 (centres unmarked)	80.5%
O=C1CCC(N2Cc3c(ccc4c3OCC43CCC(Cc4ccccc4)CC3)C2=O)C(=O)N1 (centres unmarked)	104%
O=C1CCC(N2Cc3c(ccc4c3OCC43CCC(Oc4ccccc4)CC3)C2=O)C(=O)N1 (centres unmarked)	94.6%

Study 4
SMILES: O=c1cc(N2CCOCC2)oc2c1ccc1ccccc12
Read-out: enzyme activity
Action: inhibitor
Concentration: 0.5 µM
Reference: control
target	remaining activity
CDC42BPB (Homo sapiens, UniProt Q9Y5S2)	98.3%
MARK2 (Homo sapiens, UniProt Q7KZI7)	101%
ROCK1 (Homo sapiens, UniProt Q13464)	94.2%
MAPK1 (Homo sapiens, UniProt P28482)	104%
KDR (Homo sapiens, UniProt P35968)	86.8%
MAPK14 (Homo sapiens, UniProt Q16539)	96.7%
RPS6KA4 (Homo sapiens, UniProt O75676)	99.4%
Cyclin-dependent kinase 1, with cyclin A (CDK1, Homo sapiens, UniProt P06493)	103%
PRKG2 (Homo sapiens, UniProt Q13237)	102%
MAP2K1 (Homo sapiens, UniProt Q02750)	99.3%
GRK4 (Homo sapiens, UniProt P32298)	104%
DCLK2 (Homo sapiens, UniProt Q8N568)	100%
CLK4 (Homo sapiens, UniProt Q9HAZ1)	101%

For quick reference, copied from above (study 1):
target	remaining binding
CSNK2A1 (Homo sapiens, UniProt P68400)	81%
CDKL5 (Homo sapiens, UniProt O76039)	87%
